Experimental data pooled from the literature.
Each line is one published result; not all experiments were run side by side. “And” joins repeats or separate records; there may be more than shown. Numbers after ± are the reported error.

`NC1(C(=O)N[C@@H](CCO)c2ccc(Cl)cc2)CCN(c2ncnc3[nH]ccc23)CC1` gave a Cmax of 2720 ng/mL (human, plasma; 640 mg twice daily, day 4, 4 days on, 3 days off).
The Cmax of `C[C@H](CCC(=O)O)[C@H]1CC[C@H]2[C@@H]3CC[C@@H]4C[C@H](OS(=O)(=O)O)CC[C@]4(C)[C@H]3CC[C@]12C` is reported as 323 ± 27 nM (human, plasma; concentration not given, endogenous baseline diurnal).
`COc1ccc(F)cc1C(=O)NCc1ccc(-c2nn([C@@H](C)C(F)(F)F)c(N)c2C(N)=O)cc1` gave a Cmax of 4200 ng/mL (human, fasted, plasma; oral, 200 mg single dose, formal food-effect study).
`Cn1nc2c(=O)n(C3CC3)cnc2c1[C@](O)(c1cnc(C(F)(F)F)c(Cl)c1)C(F)(F)F` has a Cmax of 4980 nM (humanized SCID mice, blood; 10 mg/kg once daily, 6 days, infected).
With `Cc1cc(OCCOCCC(F)(F)P(=O)(O)O)ccc1CCc1cnc2c(N)nc3cc(CCC(=O)O)ccc3c2c1` the Cmax was 2.34 ng/mL (human, serum; intratumoral, 200 µg every 2 weeks, cycle 2 day 15).
With `O=C(O)CCCCCCCCCCC(=O)O` the Cmax was 55.6 ± 4.4 nM (human, plasma; oral, dose not given; baseline: untreated).
`Cc1nc(-c2ccc(OCC(C)C)c(C#N)c2)sc1C(=O)O` has a Cmax of 1100 ng/mL (human, plasma; oral, 40 mg once daily, with: verinurad 10 mg).
The Cmax of `O=C(NCCN1CCCC1)c1cc(-c2ccc(CN3CCOCC3)cc2)nc2ccc(F)cc12` is reported as 1750 ng/mL and 1190 ng/mL and 951 ng/mL and 1070 ng/mL and 1220 ng/mL (human, whole blood; oral, 1800 mg).
`Cl.O=C(NC1CCOCC1)c1csc([C@@H]2C[C@H]2NCC2CC2)c1` gave a Cmax of 98.7 ng/mL (human, fed, plasma; oral, 30 mg single dose).
`CC(C)[C@@H]1CC[C@@H](C)C[C@H]1OC(=O)O[C@@H](C)OC(=O)[C@H]1[C@@H]2C[C@H](F)[C@@](N)(C(=O)O)[C@@H]21` has a Cmax of 8.06 ng/mL (human, plasma; oral, 10 mg, fed, single dose).
`CCCS(=O)(=O)N[C@H]1C[C@@H](N(C)c2ncnc3[nH]ccc23)C1` has a Cmax of 756 ng/mL (human, plasma, total; oral, 200 mg single dose).
The Cmax of `NC[C@@]1(CC(=O)O)[C@@H]2CC[C@H]3C[C@@H]2[C@@H]1C3` is reported as 438 ng/mL (human, severely renal impairment, plasma; geometric least squares mean).
`COc1nnc2ccc(N3CCC(c4ccc(OCCN5CCN(C)C(=O)[C@H]5C)cc4)CC3)nn12` has a Cmax of 22.3 nM (human, plasma; oral, 2 mg once daily, multiple dose, monotherapy).
`Cc1nc2ccc(F)cc2n1-c1nc(N)c(F)c(Nc2ccc(C(F)(F)F)cc2)n1` has a Cmax of 2210 ng/mL (human patients, plasma; oral, 400 mg twice weekly, cycles 1 and 2 pooled).
The Cmax of `CC1=C(c2cccc(O)c2)[C@H](c2ccc(OCCN3CC(CF)C3)cc2)Oc2ccc(O)cc21` is reported as 129 ng/mL (human, plasma; oral, 1000 mg single dose, geometric mean).
The Cmax of `C[C@H](CCC(=O)NCC(=O)O)[C@H]1CC[C@H]2[C@@H]3CC[C@@H]4C[C@H](O)CC[C@]4(C)[C@H]3CC[C@]12C` is reported as 90.9 ± 31.2 nM (human, plasma; concentration not given, endogenous baseline diurnal).
With `CO[C@@H]1[C@H](N(C)C(=O)c2ccccc2)C[C@H]2O[C@]1(C)n1c3ccccc3c3c4c(c5c6ccccc6n2c5c31)C(=O)NC4` the Cmax was 4330 ng/mL (human patients, consolidation therapy, plasma; oral, 50 mg twice daily, day 21, prior posaconazole, mean).
`Cc1ncnc2c1ccn2[C@@H]1C[C@H](Oc2cc(C(F)F)c(F)c3c2CNCC3)[C@@H](O)[C@H]1O` has a Cmax of 51.8 ng/mL (human; oral, 6 mg twice daily).
`COC(=O)N[C@@H](C)CNc1nccc(-c2cn(C(C)C)nc2-c2cc(Cl)cc(NS(C)(=O)=O)c2F)n1` gave a Cmax of 6030 ng/mL (human patients, plasma; oral, 450 mg twice daily, day 1, single dose, median, with: binimetinib 45 mg once daily).
`COc1ccc2[nH]c([S@+]([O-])Cc3ncc(C)c(OC)c3C)nc2c1` gave a Cmax of 80 ng/mL (human, dried blood spots; oral, 10 mg omeprazole, control arm).
`NC(=O)N1c2ccccc2C=Cc2ccccc21` gave a Cmax of 7780 ng/mL (healthy human subjects, plasma; oral, dose not given, day 20, twice daily, alone).
For `C#C[C@]1(O)CC[C@H]2[C@@H]3CCC4=CC(=NO)CC[C@@H]4[C@H]3CC[C@@]21CC` (mixture of isomers), the Cmax was 1.77 ng/mL (human; dose not given, alone).
`Cn1cncc1[C@@](N)(c1ccc(Cl)cc1)c1ccc2c(c1)c(-c1cccc(Cl)c1)cc(=O)n2C` has a Cmax of 76.1 ng/mL (human, plasma; oral, dose not given, with: ranitidine).
For `Cc1ccc(C(=O)N(CCCN)C(c2nc3snc(C)c3c(=O)n2Cc2ccccc2)C(C)C)cc1` (centres unmarked), the Cmax was 41.9 ng/mL (human patients, plasma; intravenous, 7 mg/day, day 3 of induction course, geometric mean).
With `COC(=O)c1ccc2c(c1)NC(=O)/C2=C(\Nc1ccc(N(C)C(=O)CN2CCN(C)CC2)cc1)c1ccccc1` the Cmax was 19.8 ng/mL (healthy human; oral, 150 mg single, alone).
The Cmax of `CC1(COc2ccc3c(c2)ncn3-c2ccc3cccc(N4CCC(N)CC4)c3n2)COC1` is reported as 345 nM (human patients, recurrent/progressive HGG or DIPG, serum; oral, 130 mg/m^2, day 1, median).
`Cn1c(=O)oc2ccc(-c3ccc(C[C@@H](C#N)NC(=O)[C@@H]4CNCCCO4)cc3)cc21` has a Cmax of 1240 nM (HPLC-MS/MS; healthy male humans, plasma; oral, 40 mg).
The Cmax of `N#Cc1cc(NC(=O)[C@H]2c3ccccc3C(=O)N(CC(F)(F)F)[C@@H]2c2cccnc2)ccc1F` is reported as 904 ng/mL (human, plasma; oral, 900 mg, median).
`Cc1cc(Nc2cc3ncccc3c(N[C@@H]3C[C@H]4CC[C@@H](C3)N4CCC#N)n2)n[nH]1` gave a Cmax of 14.4 ng/mL (human, plasma; 270 mg, day 1, geometric mean).
For `COc1ccc2nc([S@@+]([O-])Cc3ncc(CO)c(OC)c3C)[nH]c2c1`, the Cmax was 11.5 nM (human, dried plasma spots; 5 mg racemic omeprazole, with: fluvoxamine and voriconazole).
For `CN(CC#N)C(=O)C[C@H](Nc1nc2ccccc2[nH]1)c1cccc(C(F)(F)F)c1`, the Cmax was 8010 ± 1480 ng/mL (human; intravenous infusion, 5 mg/kg, 1 mg/mL formulation).
`COC(=O)N[C@@H](C)CNc1nccc(-c2cn(C(C)C)nc2-c2cc(Cl)cc(NS(C)(=O)=O)c2F)n1` has a Cmax of 554 ng/mL (human, plasma; oral, 50 mg, single dose alone; geometric mean).
With `CCc1cc2c(cc1N1CCC(N3CCOCC3)CC1)C(C)(C)c1[nH]c3cc(C#N)ccc3c1C2=O` the Cmax was 1210 ng/mL (LC-MS; human, plasma; oral, 600 mg twice daily, cycle 1 day 15).
With `Cc1cn(C(=O)c2c(-c3c(Cl)cc(Cl)cc3Cl)noc2C(C)(C)F)c2cccc(/C=C/C(=O)O)c12` the Cmax was 30300 ng/mL (human patients; 500 mg bid, cycle 8 day 1).
The Cmax of `Cc1cc(-c2nccc3c2ccn3CC(=O)Nc2ccc(-c3cnccn3)cn2)ccn1` is reported as 186 nM (human, plasma; oral, 20 mg once daily, day 1, geometric mean).
With `CO[C@@H]1[C@H](OC(=O)N2CC(CCN3CCOCC3)C2)CC[C@]2(CO2)[C@H]1[C@@]1(C)O[C@@H]1CC=C(C)C` the Cmax was 8.38 ± 4.23 ng/mL (humans, plasma; subcutaneous, 1.8 mg twice weekly, first dose).
`CC(C)(Sc1ccncc1-c1ccc(C#N)c2ccccc12)C(=O)O` gave a Cmax of 14.5 ng/mL (human, plasma; oral, 5 mg once daily, geometric mean, with: febuxostat 40 mg).
The Cmax of `COCCOc1cnc2ccn([C@H](C)c3nnc4c(F)cc(-c5cnn(C)c5)cn34)c(=O)c2c1` is reported as 5760 ng/mL (human patients, expansion, plasma; oral, 300 mg once daily, day 1).

Some of these lines once more:
`COc1ccc2[nH]c([S@+]([O-])Cc3ncc(C)c(OC)c3C)nc2c1` gave a Cmax of 80 ng/mL (human, dried blood spots; oral, 10 mg omeprazole, control arm).
`NC(=O)N1c2ccccc2C=Cc2ccccc21` gave a Cmax of 7780 ng/mL (healthy human subjects, plasma; oral, dose not given, day 20, twice daily, alone).
For `C#C[C@]1(O)CC[C@H]2[C@@H]3CCC4=CC(=NO)CC[C@@H]4[C@H]3CC[C@@]21CC` (mixture of isomers), the Cmax was 1.77 ng/mL (human; dose not given, alone).
`Cn1cncc1[C@@](N)(c1ccc(Cl)cc1)c1ccc2c(c1)c(-c1cccc(Cl)c1)cc(=O)n2C` has a Cmax of 76.1 ng/mL (human, plasma; oral, dose not given, with: ranitidine).
For `Cc1ccc(C(=O)N(CCCN)C(c2nc3snc(C)c3c(=O)n2Cc2ccccc2)C(C)C)cc1` (centres unmarked), the Cmax was 41.9 ng/mL (human patients, plasma; intravenous, 7 mg/day, day 3 of induction course, geometric mean).
With `COC(=O)c1ccc2c(c1)NC(=O)/C2=C(\Nc1ccc(N(C)C(=O)CN2CCN(C)CC2)cc1)c1ccccc1` the Cmax was 19.8 ng/mL (healthy human; oral, 150 mg single, alone).
